Results pooled from the literature.
“And” joins repeats or separate records; there may be more than shown. ± marks the error that the study gave. In brackets after ≈: the same amount, converted by molar mass.
NOX5: NADPH oxidase 5 (NOX5, Homo sapiens, UniProt Q96PH1)
Slc6a3: Sodium-dependent dopamine transporter (Slc6a3, Rattus norvegicus, UniProt P23977)
OPRD1: Delta-type opioid receptor (OPRD1, Homo sapiens, UniProt P41143)
Slc6a4: Sodium-dependent serotonin transporter (Slc6a4, Rattus norvegicus, UniProt P31652)
Oprk1: Kappa-type opioid receptor (Oprk1, Mus musculus, UniProt P33534)
Or2c1: Or2c1 (Mus musculus, UniProt P23275)
OPRK1: Kappa-type opioid receptor (OPRK1, Homo sapiens, UniProt P41145)

Protein sequences, listed by entry. Tags and fused reporters are not part of them. Residues count along the entry.
UniProt Q96PH1, 1-719 isoform 4: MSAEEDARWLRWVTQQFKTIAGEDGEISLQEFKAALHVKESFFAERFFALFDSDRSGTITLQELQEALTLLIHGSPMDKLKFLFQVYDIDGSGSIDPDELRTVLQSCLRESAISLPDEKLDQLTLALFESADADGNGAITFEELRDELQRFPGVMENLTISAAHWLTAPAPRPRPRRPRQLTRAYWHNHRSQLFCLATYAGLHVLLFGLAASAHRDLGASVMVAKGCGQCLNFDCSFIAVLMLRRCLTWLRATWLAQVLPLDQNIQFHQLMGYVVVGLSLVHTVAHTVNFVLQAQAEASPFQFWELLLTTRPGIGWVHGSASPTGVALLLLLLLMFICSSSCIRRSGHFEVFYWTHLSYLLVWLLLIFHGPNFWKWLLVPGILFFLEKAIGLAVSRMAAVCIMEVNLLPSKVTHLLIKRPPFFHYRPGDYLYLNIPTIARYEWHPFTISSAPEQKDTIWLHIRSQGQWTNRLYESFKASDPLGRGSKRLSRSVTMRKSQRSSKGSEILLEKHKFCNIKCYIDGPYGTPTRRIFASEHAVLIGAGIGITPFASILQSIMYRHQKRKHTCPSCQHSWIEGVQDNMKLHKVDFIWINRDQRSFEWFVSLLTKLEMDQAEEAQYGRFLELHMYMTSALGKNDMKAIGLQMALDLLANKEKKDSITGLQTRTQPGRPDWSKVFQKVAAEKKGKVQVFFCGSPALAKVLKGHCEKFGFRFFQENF
UniProt P23977, whole entry: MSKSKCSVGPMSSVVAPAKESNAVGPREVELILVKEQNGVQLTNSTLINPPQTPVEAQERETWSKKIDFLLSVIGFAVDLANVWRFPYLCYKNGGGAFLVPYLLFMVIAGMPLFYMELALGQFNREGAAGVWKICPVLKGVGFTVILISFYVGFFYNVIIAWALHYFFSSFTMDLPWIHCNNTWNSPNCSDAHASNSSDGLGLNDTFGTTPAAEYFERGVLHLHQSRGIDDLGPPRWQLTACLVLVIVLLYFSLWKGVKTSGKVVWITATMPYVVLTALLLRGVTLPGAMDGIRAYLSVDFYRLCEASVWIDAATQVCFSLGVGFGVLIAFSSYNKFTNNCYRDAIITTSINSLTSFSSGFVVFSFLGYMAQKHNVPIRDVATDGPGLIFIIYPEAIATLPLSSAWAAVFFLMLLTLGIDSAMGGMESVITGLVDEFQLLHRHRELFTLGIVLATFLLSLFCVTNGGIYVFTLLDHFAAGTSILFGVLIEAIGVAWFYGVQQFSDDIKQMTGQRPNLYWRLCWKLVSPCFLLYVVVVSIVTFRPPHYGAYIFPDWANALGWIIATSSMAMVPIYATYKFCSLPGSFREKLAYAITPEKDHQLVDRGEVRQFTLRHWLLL
UniProt P41143, whole entry: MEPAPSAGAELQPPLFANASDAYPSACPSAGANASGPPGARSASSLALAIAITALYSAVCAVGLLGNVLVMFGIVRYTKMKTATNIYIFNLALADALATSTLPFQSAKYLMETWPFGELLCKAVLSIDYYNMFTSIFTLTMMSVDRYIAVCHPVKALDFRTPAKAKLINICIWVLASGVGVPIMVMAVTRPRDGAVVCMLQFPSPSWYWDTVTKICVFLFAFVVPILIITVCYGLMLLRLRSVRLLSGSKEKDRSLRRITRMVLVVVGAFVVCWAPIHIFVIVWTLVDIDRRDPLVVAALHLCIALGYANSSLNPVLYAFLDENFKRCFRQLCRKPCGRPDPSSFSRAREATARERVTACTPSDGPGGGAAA
UniProt P31652, whole entry: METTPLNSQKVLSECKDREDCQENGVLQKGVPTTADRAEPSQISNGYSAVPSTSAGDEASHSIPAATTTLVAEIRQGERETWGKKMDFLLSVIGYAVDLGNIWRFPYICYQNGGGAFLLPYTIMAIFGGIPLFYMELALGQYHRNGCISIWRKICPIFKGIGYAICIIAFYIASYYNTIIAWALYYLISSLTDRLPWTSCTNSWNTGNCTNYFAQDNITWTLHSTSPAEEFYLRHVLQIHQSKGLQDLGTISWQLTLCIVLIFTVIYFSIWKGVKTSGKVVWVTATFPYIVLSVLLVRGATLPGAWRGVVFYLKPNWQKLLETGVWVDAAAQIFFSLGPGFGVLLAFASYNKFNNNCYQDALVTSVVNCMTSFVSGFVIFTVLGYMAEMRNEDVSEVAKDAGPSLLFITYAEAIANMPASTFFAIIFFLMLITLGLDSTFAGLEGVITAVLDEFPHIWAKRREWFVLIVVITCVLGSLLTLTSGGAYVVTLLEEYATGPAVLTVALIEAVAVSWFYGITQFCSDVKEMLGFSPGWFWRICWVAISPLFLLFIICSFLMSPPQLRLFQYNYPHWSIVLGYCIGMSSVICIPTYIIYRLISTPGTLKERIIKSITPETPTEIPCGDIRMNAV
UniProt P33534, whole entry: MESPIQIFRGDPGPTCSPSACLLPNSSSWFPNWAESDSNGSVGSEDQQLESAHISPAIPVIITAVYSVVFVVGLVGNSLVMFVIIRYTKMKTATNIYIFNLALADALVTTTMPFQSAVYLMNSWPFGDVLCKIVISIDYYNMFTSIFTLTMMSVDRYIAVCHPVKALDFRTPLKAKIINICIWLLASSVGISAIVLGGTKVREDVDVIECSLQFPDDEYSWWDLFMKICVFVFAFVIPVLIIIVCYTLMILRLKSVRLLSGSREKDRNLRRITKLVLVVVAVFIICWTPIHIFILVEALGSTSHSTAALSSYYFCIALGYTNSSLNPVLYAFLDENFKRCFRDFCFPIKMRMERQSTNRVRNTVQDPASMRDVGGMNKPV
UniProt P23275, whole entry: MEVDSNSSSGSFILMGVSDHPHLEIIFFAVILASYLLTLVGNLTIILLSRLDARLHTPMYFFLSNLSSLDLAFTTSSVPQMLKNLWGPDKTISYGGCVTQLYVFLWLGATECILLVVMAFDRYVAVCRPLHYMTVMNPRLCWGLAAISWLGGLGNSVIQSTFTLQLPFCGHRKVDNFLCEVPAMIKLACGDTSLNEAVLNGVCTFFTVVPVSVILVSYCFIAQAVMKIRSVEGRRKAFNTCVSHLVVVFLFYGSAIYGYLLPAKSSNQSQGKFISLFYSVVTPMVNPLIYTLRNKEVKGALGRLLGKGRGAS
UniProt P41145, whole entry: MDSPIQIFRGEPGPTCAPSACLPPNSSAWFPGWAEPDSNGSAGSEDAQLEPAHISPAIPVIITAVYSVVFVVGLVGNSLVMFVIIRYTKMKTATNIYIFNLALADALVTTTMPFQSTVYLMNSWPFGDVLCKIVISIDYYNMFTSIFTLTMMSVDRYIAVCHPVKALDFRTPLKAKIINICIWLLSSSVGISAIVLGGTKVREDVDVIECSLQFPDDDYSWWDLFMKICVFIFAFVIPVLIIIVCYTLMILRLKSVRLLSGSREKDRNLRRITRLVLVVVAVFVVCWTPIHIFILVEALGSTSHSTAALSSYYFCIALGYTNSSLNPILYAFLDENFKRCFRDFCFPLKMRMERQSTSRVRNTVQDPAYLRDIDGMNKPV
UniProt Q9GZN0, whole entry: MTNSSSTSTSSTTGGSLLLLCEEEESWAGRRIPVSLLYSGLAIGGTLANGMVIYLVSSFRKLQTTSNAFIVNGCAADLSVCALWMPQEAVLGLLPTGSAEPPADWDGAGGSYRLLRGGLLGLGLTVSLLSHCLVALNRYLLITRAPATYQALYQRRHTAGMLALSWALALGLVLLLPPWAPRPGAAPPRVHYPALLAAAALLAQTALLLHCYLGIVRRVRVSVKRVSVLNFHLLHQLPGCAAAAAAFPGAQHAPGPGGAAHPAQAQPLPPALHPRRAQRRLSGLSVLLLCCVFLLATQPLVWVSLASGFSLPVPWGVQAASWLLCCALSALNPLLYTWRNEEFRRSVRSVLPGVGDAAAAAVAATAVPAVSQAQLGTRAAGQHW
UniProt Q12866, whole entry, looked up: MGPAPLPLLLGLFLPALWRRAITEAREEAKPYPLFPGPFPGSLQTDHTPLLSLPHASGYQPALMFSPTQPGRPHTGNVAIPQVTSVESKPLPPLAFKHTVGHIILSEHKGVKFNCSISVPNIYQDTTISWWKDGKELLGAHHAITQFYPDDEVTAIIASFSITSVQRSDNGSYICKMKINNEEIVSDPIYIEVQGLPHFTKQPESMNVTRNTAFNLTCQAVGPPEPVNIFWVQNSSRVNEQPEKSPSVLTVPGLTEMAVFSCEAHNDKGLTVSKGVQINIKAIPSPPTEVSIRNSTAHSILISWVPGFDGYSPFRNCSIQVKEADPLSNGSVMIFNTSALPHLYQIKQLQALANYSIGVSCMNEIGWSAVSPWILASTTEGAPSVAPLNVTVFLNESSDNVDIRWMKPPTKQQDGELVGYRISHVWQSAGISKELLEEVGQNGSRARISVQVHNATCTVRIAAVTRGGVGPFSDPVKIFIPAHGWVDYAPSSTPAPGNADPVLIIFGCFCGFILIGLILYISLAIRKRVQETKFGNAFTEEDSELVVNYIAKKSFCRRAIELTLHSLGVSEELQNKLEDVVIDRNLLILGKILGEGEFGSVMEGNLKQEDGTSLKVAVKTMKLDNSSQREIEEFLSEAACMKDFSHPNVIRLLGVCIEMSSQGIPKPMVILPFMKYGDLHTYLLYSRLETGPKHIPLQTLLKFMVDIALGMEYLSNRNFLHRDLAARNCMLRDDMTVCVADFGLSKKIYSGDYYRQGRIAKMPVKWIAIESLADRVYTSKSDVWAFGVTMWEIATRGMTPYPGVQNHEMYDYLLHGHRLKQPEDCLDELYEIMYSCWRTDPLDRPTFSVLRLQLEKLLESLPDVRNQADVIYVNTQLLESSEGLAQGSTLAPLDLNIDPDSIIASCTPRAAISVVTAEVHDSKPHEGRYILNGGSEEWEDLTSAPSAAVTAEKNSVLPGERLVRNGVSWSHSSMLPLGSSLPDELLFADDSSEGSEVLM
UniProt P35372, whole entry: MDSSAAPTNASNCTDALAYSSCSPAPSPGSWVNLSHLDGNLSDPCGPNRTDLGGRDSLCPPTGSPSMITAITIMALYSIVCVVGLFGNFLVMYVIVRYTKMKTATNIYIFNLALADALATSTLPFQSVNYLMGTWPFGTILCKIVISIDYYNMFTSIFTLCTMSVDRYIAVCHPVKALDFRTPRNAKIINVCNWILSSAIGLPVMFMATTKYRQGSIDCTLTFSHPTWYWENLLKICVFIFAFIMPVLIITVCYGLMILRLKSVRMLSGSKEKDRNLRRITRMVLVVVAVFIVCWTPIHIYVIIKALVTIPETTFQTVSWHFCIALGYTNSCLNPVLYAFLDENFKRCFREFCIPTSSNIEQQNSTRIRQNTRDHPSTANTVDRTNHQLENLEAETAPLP
UniProt P18089, whole entry: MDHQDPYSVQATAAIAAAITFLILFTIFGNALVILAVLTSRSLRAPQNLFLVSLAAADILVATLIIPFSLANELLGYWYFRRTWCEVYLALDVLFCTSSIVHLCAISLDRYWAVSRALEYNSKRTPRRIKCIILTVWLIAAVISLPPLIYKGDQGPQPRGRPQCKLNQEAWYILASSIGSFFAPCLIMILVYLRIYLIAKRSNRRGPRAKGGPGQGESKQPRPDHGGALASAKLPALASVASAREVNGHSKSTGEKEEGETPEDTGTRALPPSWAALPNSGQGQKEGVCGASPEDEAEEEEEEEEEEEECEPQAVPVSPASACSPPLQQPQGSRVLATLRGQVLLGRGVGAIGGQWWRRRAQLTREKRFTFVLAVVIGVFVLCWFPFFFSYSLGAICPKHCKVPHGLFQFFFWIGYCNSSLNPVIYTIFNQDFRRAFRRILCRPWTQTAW
UniProt B0JCV9, 1-390: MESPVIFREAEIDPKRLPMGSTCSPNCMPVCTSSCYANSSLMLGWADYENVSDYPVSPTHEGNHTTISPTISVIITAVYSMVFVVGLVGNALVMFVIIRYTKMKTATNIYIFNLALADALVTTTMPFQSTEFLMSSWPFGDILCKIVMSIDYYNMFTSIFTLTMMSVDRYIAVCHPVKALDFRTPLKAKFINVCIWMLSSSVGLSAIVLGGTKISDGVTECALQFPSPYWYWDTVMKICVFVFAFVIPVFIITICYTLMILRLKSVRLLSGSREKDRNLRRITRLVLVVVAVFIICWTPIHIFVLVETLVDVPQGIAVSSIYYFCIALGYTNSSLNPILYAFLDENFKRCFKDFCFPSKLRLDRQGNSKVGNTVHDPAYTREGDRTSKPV

The EC50 of `Cc1ccc2nc(Sc3ncnc4c3nnn4Cc3ccccc3)oc2c1` is reported as 2500 ± 1000 nM (NOX5; enzyme activity, Amplex Red; NOX5-overexpressing cells).
The EC50 of `NCCc1c[nH]c2ccccc12` is reported as under 165 nM (Slc6a3; dopamine release, releaser; rat brain synaptosomes).
`Clc1ccc2nc(Sc3ncnc4c3nnn4Cc3ccccc3)oc2c1` has an EC50 of 1800 ± 700 nM (NOX5; enzyme activity, Amplex Red; NOX5-overexpressing cells).
For `CC[C@@](O)(c1ccccc1)[C@H]1C[C@@]23C=C[C@]1(OC)[C@@H]1Oc4c(O)ccc5c4[C@@]12CCN(CC1CC1)[C@@H]3C5`, the EC50 was 10.2 ± 2.4 nM (OPRD1; G-protein activation, agonist).
`Cc1ccc2c(CCN)c[nH]c2c1` has an EC50 of 51.6 ± 5.8 nM (Slc6a4; serotonin release, releaser; rat brain synaptosomes).
`CN(C(=O)Cc1cccc2occc12)[C@H]1CC[C@@]2(CCCO2)C[C@@H]1N1CCCC1` has an EC50 of 4 nM (Oprk1; receptor internalization, agonist, on-cell western; N2a; 1 h, mouse receptor).
The EC50 of `CCC[C@@H](C)COc1ccc([C@@H](CO)C(=O)N[C@H](C)c2ccccc2)cc1` is reported as 562 nM (G protein-coupled receptor 88 (Homo sapiens, UniProt Q9GZN0); cAMP level, agonist, TR-FRET; CHO overexpressing G protein-coupled receptor 88; together with: forskolin 300 nM).
The inhibition of `CC#C/C(=N\OC[C@H]1COCCN1)c1ccc2ncnc(Nc3ccc(OCc4cccc(F)c4)c(Cl)c3)c2c1` is reported as 9.2% (MERTK (Homo sapiens, UniProt Q12866); kinase activity; 10 µM).
For `CO[C@]12C=C[C@@]3(C[C@@H]1[C@H](O)c1ccccc1)[C@H]1Cc4ccc(O)c5c4[C@@]3(CCN1CC1CC1)[C@H]2O5`, the EC50 was 2.75 ± 1.05 nM (OPRM1 (Homo sapiens, UniProt P35372); G-protein activation, agonist; relative to: DAMGO).
For `Cc1cccc2nc(Sc3ncnc4c3nnn4Cc3ccccc3)oc12`, the EC50 was 3100 ± 1000 nM (NOX5; enzyme activity, Amplex Red; NOX5-overexpressing cells).
With `CCCCCC(C)=O` the EC50 was 4000 ± 1000 nM (Or2c1; ion current, agonist, two-electrode voltage clamp; Xenopus oocytes; 15 s).
Under “log2 fold change”, `CCN1CCN(Cc2ccc(NC(=O)c3ccc(C)c(/C=C/c4cnc5[nH]ccc5c4OC)c3)cc2C(F)(F)F)CC1` is recorded as -0.904 (ETV6-PDGFRA fusion; kinase-CDC37 interaction, inhibitor; human cells; 5 µM; relative to: vehicle).
With `CCCCCCC1c2ccc(O)cc2Oc2cc(O)ccc21` the MIC was 4.7 µg/mL (≈ 15.8 µM) (Acinetobacter baumannii; ATCC 9955; together with: NAB7061 4 µg/mL).
With `Cc1ccc2oc(Sc3ncnc4c3nnn4Cc3ccccc3)nc2c1` the EC50 was 2700 ± 800 nM (NOX5; enzyme activity, Amplex Red; NOX5-overexpressing cells).
With `Cc1cccc2c(CCN)c[nH]c12` the EC50 was 3380 ± 220 nM (Slc6a3; dopamine release, releaser; rat brain synaptosomes).
`CC[C@](O)([C@H]1C[C@@]23CC[C@]1(OC)[C@@H]1Oc4c(O)ccc5c4[C@@]12CCN(CC1CC1)[C@@H]3C5)C(C)(C)C` gave an EC50 of 183 ± 9.4 nM (OPRK1; G-protein activation, agonist).
`NCCc1c[nH]c2ccccc12` has an EC50 of 164 ± 16 nM (Slc6a3; dopamine release, releaser; rat striatal synaptosomes).
With `CC[C@@H](N)Cc1c[nH]c2ccccc12` the EC50 was 34.7 ± 4.9 nM (Slc6a4; serotonin release, releaser; rat brain synaptosomes).
For `c1ccc(Cn2nnc3c(Sc4nc5ncccc5o4)ncnc32)cc1`, the EC50 was over 15000 nM (NOX5; enzyme activity, Amplex Red; NOX5-overexpressing cells).
The Ki of `CCCN1CCN(c2ccc3c(c2)C2CC3CCN2C(=O)OCc2ccccc2)CC1` (stereo not shown) is reported as 1800 nM (ADRA2B (Homo sapiens, UniProt P18089); binding, radioligand binding).
`COC(=O)[C@@H]1C[C@H](OC(C)=O)C(=O)[C@H]2[C@@]1(C)CC[C@H]1C(=O)O[C@H](c3ccoc3)C[C@]21C` has an EC50 of 69 nM (Kappa-type opioid receptor (Lithobates pipiens, UniProt B0JCV9); cAMP production, agonist, GloSensor; HEK-293T; together with: isoproterenol).
With `methoxymethyl salvinorin B` the EC50 was 0.81 nM (Oprk1; agonist; mouse receptor).
`NCCc1c[nH]c2cccc(F)c12` has an EC50 of 106 ± 5 nM (Slc6a3; dopamine release, releaser; rat brain synaptosomes).
`CC[C@](O)([C@H]1C[C@@]23C=C[C@]1(OC)[C@@H]1Oc4c(O)ccc5c4[C@@]12CCN(CC1CC1)[C@@H]3C5)C(C)(C)C` has an EC50 of 314 ± 11 nM (OPRD1; G-protein activation, agonist).
With `CNCCc1c[nH]c2ccccc12` the EC50 was 22.4 ± 1.4 nM (Slc6a4; serotonin release, releaser; rat brain synaptosomes).
`CO[C@]12CC[C@@]3(C[C@@H]1[C@@H](O)c1ccccc1)[C@H]1Cc4ccc(O)c5c4[C@@]3(CCN1CC1CC1)[C@H]2O5` gave an EC50 of 0.64 ± 0.17 nM (OPRD1; G-protein activation, agonist).
For `FC(F)(F)c1ccc2nc(Sc3ncnc4c3nnn4Cc3ccccc3)oc2c1`, the EC50 was 2000 ± 900 nM (NOX5; enzyme activity, Amplex Red; NOX5-overexpressing cells).
With `CO[C@]12CC[C@@]3(C[C@@H]1[C@](C)(O)c1ccccc1)[C@H]1Cc4ccc(O)c5c4[C@@]3(CCN1CC1CC1)[C@H]2O5` the EC50 was 2.66 ± 0.34 nM (OPRD1; G-protein activation, agonist).
`ethoxymethyl salvinorin B` has an EC50 of 0.53 nM (Oprk1; agonist; mouse receptor).
`Cn1cc(CCN)c2ccccc21` has an EC50 of 53.1 ± 4.9 nM (Slc6a4; serotonin release, releaser; rat brain synaptosomes).
For `CC(=O)c1ccccc1`, the EC50 was 38000 ± 30000 nM (Or2c1; ion current, agonist, two-electrode voltage clamp; Xenopus oocytes; 15 s).
`CC[C@@](O)(c1ccccc1)[C@H]1C[C@@]23CC[C@]1(OC)[C@@H]1Oc4c(O)ccc5c4[C@@]12CCN(CC1CC1)[C@@H]3C5` gave an EC50 of 249 ± 120 nM (OPRK1; G-protein activation, agonist).
`NCCc1c[nH]c2c(Cl)cccc12` has an EC50 of 8 nM and 8.03 nM (Slc6a4; serotonin release, releaser; rat brain synaptosomes).
With `O=c1ccc2nc3ccc(OC4CCCC4)cc3oc-2c1` the MIC90 was 18 µM (≈ 5.06 µg/mL) (Mycobacterium tuberculosis; mc2 6206 PA-824-resistant ddn mutant; 7 days).
For `CCN(CC)C(=O)Oc1ccc(C(=O)Nc2cccc3cc[nH]c23)cc1`, “weighted decay time constant” read “decreased” (NMDA receptor EPSC, inhibitor, whole-cell patch clamp; subthalamic nucleus neurons, rat, subthalamic nucleus slices; 10 µM; relative to: vehicle).
The EC50 of `NCCc1c[nH]c2ccc(Br)cc12` is reported as 75 ± 7.7 nM (Slc6a4; serotonin release, releaser; rat brain synaptosomes).
`COCCOc1ccc2nc3ccc(=O)c(Br)c-3oc2c1` gave an MIC90 of 29 µM (≈ 10.2 µg/mL) (Mycobacterium tuberculosis; mc2 6206 PA-824-resistant ddn mutant; 7 days).

Excerpt of the above:
With `CCCCCC(C)=O` the EC50 was 4000 ± 1000 nM (Or2c1; ion current, agonist, two-electrode voltage clamp; Xenopus oocytes; 15 s).
Under “log2 fold change”, `CCN1CCN(Cc2ccc(NC(=O)c3ccc(C)c(/C=C/c4cnc5[nH]ccc5c4OC)c3)cc2C(F)(F)F)CC1` is recorded as -0.904 (ETV6-PDGFRA fusion; kinase-CDC37 interaction, inhibitor; human cells; 5 µM; relative to: vehicle).
With `CCCCCCC1c2ccc(O)cc2Oc2cc(O)ccc21` the MIC was 4.7 µg/mL (≈ 15.8 µM) (Acinetobacter baumannii; ATCC 9955; together with: NAB7061 4 µg/mL).
